Published values of several laboratories.
A part holds a random share of what one study measured. Substitutions count along the parent as printed.

Study 1
Target: Interferon regulatory factor 7, full length, phosphomimetic (IRF7, Homo sapiens, UniProt Q92985, residues 1-503, S101K/S471D/S472D/S475D/S476D/S477D/S483D/S484D/S487D)
Technique: protein-binding microarray
Molecule type: double-stranded DNA, one strand shown
Matrix: in vitro
Tested at: 250 nM
Notes: 60-bp whole probe
Together with: salmon DNA 0.4 mg/ml
Relative to: random background probes
Reading: higher = stronger binding
All sequences stand within: GCCTAGCAC … GTCTTGATTCGCTTGACGCTGCTG
Target sequence (chain): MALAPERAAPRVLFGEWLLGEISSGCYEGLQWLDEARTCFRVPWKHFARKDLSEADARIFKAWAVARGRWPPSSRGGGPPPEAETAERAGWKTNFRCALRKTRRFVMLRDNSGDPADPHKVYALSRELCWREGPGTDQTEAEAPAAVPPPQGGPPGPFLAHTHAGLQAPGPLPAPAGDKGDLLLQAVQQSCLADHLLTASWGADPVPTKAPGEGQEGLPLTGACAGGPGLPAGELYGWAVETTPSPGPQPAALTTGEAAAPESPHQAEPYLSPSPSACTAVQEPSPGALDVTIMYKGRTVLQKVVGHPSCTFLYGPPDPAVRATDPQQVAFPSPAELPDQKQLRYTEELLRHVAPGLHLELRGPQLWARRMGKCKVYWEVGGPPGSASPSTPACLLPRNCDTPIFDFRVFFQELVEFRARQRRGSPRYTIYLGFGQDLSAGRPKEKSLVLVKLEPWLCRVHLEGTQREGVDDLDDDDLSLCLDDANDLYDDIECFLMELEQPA
Sequence | log fluorescence
TTAGGTTTCGGGACTGCGTTAGTGCTA | 4.1 z-score
TTAGGTATCCTTCTCCTGTAGTGCTAG | 0.415 z-score
TTAGGTATCATTTTCCTTTAGTGCTAG | 1.78 z-score
TCATGCTTCTGTATGGGACTGTGCTAG | -0.129 z-score
GACGGGATCCTACTGCTGACGTGCTAG | -0.398 z-score
TTAGGACTGGGTACTGGGTTAGTGCTA | -0.235 z-score
TTACGTATCGACTTTCGGTTAGTGCTA | 1.96 z-score
ACCATTTTTTTTCACTATTGGTGCTAG | 0.764 z-score
TTCGGTTTCCTTATCCTTTAGTGCTAG | 3.72 z-score
GACGGTCTCTGTATCGGGACGTGCTAG | -0.129 z-score
GACGGTATCGACAGTGGGGACGTGCTA | -0.428 z-score
TGCTGTGTGCATCTATCTTAGTGCTAG | -1.29 z-score
GACGGTCTCGGTTTCGTGACGTGCTAG | 6.76 z-score
TCAGAACTGAGTTTCGATTAGTGCTAG | 7.99 z-score
CAGGTTTTGCTAAGTCAACTGGTGCTA | 0.593 z-score
TTAGGAGTGGTACATGAAGCGTGCTAG | -0.813 z-score

Study 2
Target: Sal-like protein 4, full length isoform A (SALL4, Homo sapiens, UniProt Q9UJQ4, residues 1-1053)
Sequence of UniProt Q9UJQ4 (whole entry, looked up): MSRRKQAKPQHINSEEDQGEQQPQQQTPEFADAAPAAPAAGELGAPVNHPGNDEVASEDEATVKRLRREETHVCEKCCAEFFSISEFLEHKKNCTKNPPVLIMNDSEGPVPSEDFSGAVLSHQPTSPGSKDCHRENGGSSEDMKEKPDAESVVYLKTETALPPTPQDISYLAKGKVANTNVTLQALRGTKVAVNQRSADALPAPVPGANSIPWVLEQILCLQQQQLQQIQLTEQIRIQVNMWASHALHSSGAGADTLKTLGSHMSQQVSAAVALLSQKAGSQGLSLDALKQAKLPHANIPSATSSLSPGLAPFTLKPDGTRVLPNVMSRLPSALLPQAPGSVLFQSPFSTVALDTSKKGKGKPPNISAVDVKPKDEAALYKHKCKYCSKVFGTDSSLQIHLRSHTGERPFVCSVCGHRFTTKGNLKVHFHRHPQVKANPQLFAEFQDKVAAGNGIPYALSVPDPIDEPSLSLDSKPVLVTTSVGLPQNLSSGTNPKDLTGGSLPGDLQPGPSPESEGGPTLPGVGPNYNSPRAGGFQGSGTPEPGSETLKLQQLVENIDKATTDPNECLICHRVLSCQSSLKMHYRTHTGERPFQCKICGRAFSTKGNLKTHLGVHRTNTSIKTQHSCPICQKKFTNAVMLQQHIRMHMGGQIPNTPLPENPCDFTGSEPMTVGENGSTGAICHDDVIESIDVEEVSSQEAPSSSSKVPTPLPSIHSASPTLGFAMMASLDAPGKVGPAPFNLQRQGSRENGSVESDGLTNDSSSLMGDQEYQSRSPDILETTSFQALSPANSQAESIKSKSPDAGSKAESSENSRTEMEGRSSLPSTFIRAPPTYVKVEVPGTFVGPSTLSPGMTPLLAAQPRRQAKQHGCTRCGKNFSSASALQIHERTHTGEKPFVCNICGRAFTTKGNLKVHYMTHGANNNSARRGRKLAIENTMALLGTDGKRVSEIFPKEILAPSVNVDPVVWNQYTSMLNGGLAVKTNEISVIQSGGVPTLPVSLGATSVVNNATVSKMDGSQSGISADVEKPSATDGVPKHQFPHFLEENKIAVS
Technique: universal PBM
Molecule type: double-stranded DNA, one strand shown
Matrix: in vitro
Tested at: 600 nM
Notes: 8-mer, flanks averaged, mean of replicates
Reading: higher = stronger binding
Sequence | E-score
AGTTACAT | 0.181
AACTGAAG | 0.108
GGTAGACA | -0.0117
ATTCTAGA | 0.192
GTTCTTAA | 0.0989
CCCCGTGA | -0.211
ACTTCACT | 0.0979
CGGCGTTA | -0.229
CTGATGCC | -0.0405
ATGCTATA | 0.255
AGCCGATA | -0.0748
AATCCGGC | -0.31
GTGAGAAA | 0.121
GGCTCCAC | -0.277
CGCTCTAC | -0.0533
AGCCATAC | -0.097
CAAGCTCG | -0.218

Study 3
Target: Ras GTPase-activating protein-binding protein 1, C-terminal RGG region (G3BP1, Homo sapiens, UniProt Q13283)
Sequence of UniProt Q13283 (whole entry, looked up): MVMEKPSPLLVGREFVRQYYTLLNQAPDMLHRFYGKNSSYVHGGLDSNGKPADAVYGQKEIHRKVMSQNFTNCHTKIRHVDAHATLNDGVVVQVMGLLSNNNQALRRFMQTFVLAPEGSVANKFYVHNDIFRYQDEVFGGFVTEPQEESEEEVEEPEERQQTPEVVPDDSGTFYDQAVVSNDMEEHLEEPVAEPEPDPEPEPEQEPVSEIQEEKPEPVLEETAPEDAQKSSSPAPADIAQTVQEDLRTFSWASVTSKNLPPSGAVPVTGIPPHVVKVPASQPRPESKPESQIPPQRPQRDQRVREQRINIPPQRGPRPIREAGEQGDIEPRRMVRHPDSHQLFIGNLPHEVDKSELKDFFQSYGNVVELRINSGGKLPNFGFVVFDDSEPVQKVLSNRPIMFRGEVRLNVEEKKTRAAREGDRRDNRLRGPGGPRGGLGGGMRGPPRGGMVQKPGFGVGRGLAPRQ
Technique: RNA Bind-n-Seq
Molecule type: RNA
Matrix: in vitro
Tested at: 1 µM
Notes: whole 134-nt RNA, ends assumed
Together with: 150 mM KCl
Relative to: input library
Reading: higher = stronger binding
All sequences stand within: GGGAGUUCUACAGUCCGACGAUC … UGGAAUUCUCGGGUGUCAAGG
Sequence | log2 enrichment
CCUGUGCUACACAUCGUAUGUACCGAAUCGGGGCCCCCCGGGGCCCCCCGGCCCCCCGGGAAAGUAUUAUGUUACGCCGUUCGGAUCUGC | -1.78
UCAAGUCCUGUGCUACACAUCGUAUGUACCGAAUCGGUGGUUUGGUUUUUUUGGAAAGUAUUAUGUUACGCCGUUCGGAUCUGCACUUCC | -1.31
AAGUCCUGUGCUACACAUCGUAUGUACCGAAUCGGUUUUGGUUUUGGGGUUUUGGGAAAGUAUUAUGUUACGCCGUUCGGAUCUGCACUU | -1.51
UGGCCCUGGUGGCAUGCGGGGAGGAAGAGGUGGCCUCAUGGAUCGUGGUGGUCCCGGUGGAAUGUUCAGAGGUGGCCGUGGUGGAUACAG | 2.42
AAGUCCUGUGCUACACAUCGUAUGUACCGAAUCAAACCCAAAUUUUUAAACCCAAAAAAGUAUUAUGUUACGCCGUUCGGAUCUGCACUU | -1.06
CCUGUGCUACACAUCGUAUGUACCGAAUCGGGUUUUUUGGGGUUUUUUGGGUUUUUUGGGAAAGUAUUAUGUUACGCCGUUCGGAUCUGC | -1.08
GUCCUGUGCUACACAUCGUAUGUACCGAAUCGGAAAAAAGGAAAAAAGGGGAAAAAAGGAAAGUAUUAUGUUACGCCGUUCGGAUCUGCA | -1.36
AGUCCUGUGCUACACAUCGUAUGUACCGAAUCGGGGAAAAAGGGGUUUGGGGUGGGGAAAGUAUUAUGUUACGCCGUUCGGAUCUGCACU | 2.57
UGGCCCUGGUGGCAUGCGGGGAGGAAGAGGUGGGCUCAUGGAUCGUGGUGGUCCCGGUGGAAUGUUCAGAGGUGGCCGUGGUGGAGACAG | 2.14
AAGUCCUGUGCUACACAUCGUAUGUACCGAAUCGGGGUUUUGGUUUUGGGUUUUGGAAAGUAUUAUGUUACGCCGUUCGGAUCUGCACUU | -1.55

Study 4
Target: Eukaryotic initiation factor 4A-I (EIF4A1, Homo sapiens, UniProt P60842, residues 1-406, full length assumed)
Sequence of UniProt P60842 (whole entry, looked up): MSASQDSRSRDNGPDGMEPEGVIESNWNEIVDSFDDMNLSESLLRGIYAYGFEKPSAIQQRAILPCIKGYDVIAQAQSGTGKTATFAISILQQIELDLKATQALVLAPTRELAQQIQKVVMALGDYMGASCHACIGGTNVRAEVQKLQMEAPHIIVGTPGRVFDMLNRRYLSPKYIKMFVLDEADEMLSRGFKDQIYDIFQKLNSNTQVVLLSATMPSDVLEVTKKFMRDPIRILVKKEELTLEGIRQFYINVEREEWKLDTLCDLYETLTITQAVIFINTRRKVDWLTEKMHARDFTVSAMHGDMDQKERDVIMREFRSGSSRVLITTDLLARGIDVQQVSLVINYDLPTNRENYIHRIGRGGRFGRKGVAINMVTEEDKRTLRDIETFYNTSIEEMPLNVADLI
Technique: RNA Bind-n-Seq
Molecule type: RNA
Matrix: in vitro
Tested at: 15 pmol
Notes: 4-mer, random 30-nt RNA, single round
Together with: 3 µM RocA, 2 mM AMP-PNP
Relative to: mean of 4-mers
Reading: higher = stronger binding
Sequence | 4-mer enrichment Z-score
AUCG | -0.523
GAAU | 1.59
CUCU | -1.01
GUGG | 1.86
ACUG | -0.213
UCUU | -0.801
AUUA | 0.0873
UGCC | -0.808
GAAG | 1.79
AUCA | -1.21
CAUA | -0.983
CGAA | 0.93
GCAA | 0.125
UCGU | -0.601
AAGC | 0.411
GCAU | -0.529
GACG | 0.0535
UAGU | 0.381
GUUU | 0.538
CGCA | -0.565
UAAA | 1.4
UGGG | 1.86
UUAG | 0.327

Study 5
Target: CCNB3, cyclin fold, Cln2 fusion (human)
Technique: yeast growth competition, sequencing
Matrix: yeast
Notes: weak parent motif
Relative to: not given
Reading: higher = stronger binding
Starting sequence: INSM1 docking peptide (human); PKAIRKLHFEDEV
Variant | normalised enrichment score
PKAIRFLHFEDEV [K6F] | 0.159
PKAIRKSHFEDEV [L7S] | -0.212
PKACRKLHFEDEV [I4C] | 1.24
PKAIRKLHFEDFV [E12F] | 0.79
PKAIRTLHFEDEV [K6T] | 0.273
PKAARKLHFEDEV [I4A] | 0.235
PKAIRKLFFEDEV [H8F] | 0.147
PKAIRKLHFEDGV [E12G] | 0.32
PKAIRKLHNEDEV [F9N] | -0.0895
PKADRKLHFEDEV [I4D] | -0.252
PKAIRKLHFEPEV [D11P] | 0.222
PKAIRKLHFEDKV [E12K] | 0.778
PKAIRKLHFEMEV [D11M] | 0.206
PKAIWKLHFEDEV [R5W] | 0.25
PKAIRKMHFEDEV [L7M] | 0.22
PKAIYKLHFEDEV [R5Y] | 0.131
PKAIEKLHFEDEV [R5E] | -0.0708

Study 6
Target: RING finger protein unkempt homolog, zinc fingers 1-6, GST-SBP tag (UNK, Homo sapiens, UniProt Q9C0B0, residues 30-357)
Technique: RNA Bind-n-Seq
Molecule type: RNA
Matrix: in vitro
Tested at: not given
Notes: RNA with constant flanks, ends assumed
Relative to: input RNA pool
Reading: higher = stronger binding
All sequences stand within: GGGAGUUCUACAGUCCGACGAUC … CAACAGAGGAUUGAGCAUCA
Target sequence (chain): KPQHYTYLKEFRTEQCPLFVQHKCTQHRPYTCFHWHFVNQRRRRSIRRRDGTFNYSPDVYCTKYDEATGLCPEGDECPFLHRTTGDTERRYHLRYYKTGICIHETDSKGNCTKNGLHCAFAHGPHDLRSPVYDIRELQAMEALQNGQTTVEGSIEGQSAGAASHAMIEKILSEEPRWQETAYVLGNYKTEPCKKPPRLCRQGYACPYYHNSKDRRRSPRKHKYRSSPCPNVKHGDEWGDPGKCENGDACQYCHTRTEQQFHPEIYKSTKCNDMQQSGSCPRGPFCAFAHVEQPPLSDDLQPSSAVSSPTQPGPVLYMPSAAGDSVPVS
Sequence | bound/input enrichment [ratio]
ACCAAUGAAAAUCAGAAGACUAAUACUGUGGCUAAACAGGAGCAGCGACCUAUAAAAAAGAACCGUCUCUAUUCAACAGAUUUUAUAGUGUUUAAUGACAAUGAUGGUUCAGAUGAUGAG | 0.335
GAGAACAGCAACAUACAGGUCCUUUCUGAAAGAUCUGCUACUGAAGUAGACAACAAUUUCCGCAAACCACCUCCGUUUUUCCCUCCAGGAGCUCCUCCCACUCACCUUCCACCUCCUCCA | 0.376
UGAUAAAGCCUUGACUAUGCAUGCUGCUUUCAUUUUGAUAAACUUUUUAUUUUUUAACUACCGCUUUAUUAGCAAUUCCCAAAUGCUGCAAUUUGCUGAUUUCUUCACACAGACAGCUGG | 1.06
GGCACACGGCUUUCUUUCUCUGUGUGUUCGCCUCUUUCUUCUCUUUUAUUUGCCUUAUUCUACCGGAUUUUUGUCCUCUAAGAUUCUACCUGGGAUUUUCCUUUGGAAAAGUUGCUGUGG | 0.549
GCGGAGCUUCUGAAAAAUGCAGAUGAGCUAGUCAAACAGAAAAUUCAUCCAACAUCAGUUAUCCGUGGCUAUCGUCUUGCCUGCAAGGAAGCGGUGCGUUAUAUCAAUGAGAACCUGAUU | 0.0736
GAAUAUAUAGAUCAAGGUCGAAAUCCCCAGCUCUACACCAAAGAGUGCCUGGAGAGGGCUCCCGCUAAAAAUGAGCAAGUUAAAGGCAAGAUCGACACCAUGAAGAAAUUUAAAAGCCUG | 0.38

Study 7
Target: Histone acetyltransferase KAT6A, winged helix 2, GST fusion (KAT6A, Homo sapiens, UniProt Q92794, residues 85-181)
Technique: protein binding microarray
Molecule type: double-stranded DNA, one strand shown
Matrix: in vitro
Tested at: not given
Notes: 8-mer, flanks averaged, mean of 2 arrays, mostly near background
Relative to: not given
Reading: higher = stronger binding
Construct (chain): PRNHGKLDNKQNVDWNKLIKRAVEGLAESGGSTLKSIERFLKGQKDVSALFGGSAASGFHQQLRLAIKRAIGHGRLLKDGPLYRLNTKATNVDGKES
Sequence | E-score
AACTCATG | -0.0369
AACACAAC | 0.0372
CATTCGTC | 0.00761
AACTACGG | -0.112
GCGCCTCC | 0.0924
CAGTTACC | -0.121
AACCAATA | 0.0687
ACCTACAC | -0.147
AGCTCCCT | -0.0749
CGCTTAAG | -0.0626
AAGCGACC | 0.139
CCAACGGG | 0.125
CAGCCGTC | 0.133
GAACGGCA | 0.138
AGGATCAA | 0.0527
ACCCCCAG | -0.0343
ACCTTCTA | 0.00651
AGCTAACT | -0.107
CTCGTAGA | -0.241
